Results from different studies.
Numbered parts are unrelated; each lists some results of a single study. Substitutions count along the parent as printed.

Study 1
Target: CCNB3, cyclin fold, Cln2 fusion (human)
Technique: yeast growth competition, sequencing
Medium: yeast
Setting: weak parent motif
Reference: not given
Direction: higher = stronger binding
Measurement: normalised enrichment score
Starting sequence: CDKN1B docking peptide (human); PSACRNLFGPVDH; partner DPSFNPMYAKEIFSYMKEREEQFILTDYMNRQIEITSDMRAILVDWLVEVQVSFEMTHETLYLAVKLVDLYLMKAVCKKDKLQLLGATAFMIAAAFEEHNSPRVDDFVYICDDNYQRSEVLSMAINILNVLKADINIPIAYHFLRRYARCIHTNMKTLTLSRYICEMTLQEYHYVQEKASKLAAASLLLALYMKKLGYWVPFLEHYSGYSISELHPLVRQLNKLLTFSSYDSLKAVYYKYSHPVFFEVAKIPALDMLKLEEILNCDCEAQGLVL
PSACRNLFGPKDH [V11K]: 0.192
PSACRNLFGNVDH [P10N]: 0.541
MSACRNLFGPVDH [P1M]: 0.29
PSACLNLFGPVDH [R5L]: 0.329
PSACRNLFGPVQH [D12Q]: 0.52
PSACRNLFGPADH [V11A]: 0.0578
PSSCRNLFGPVDH [A3S]: 0.296
PSACRNLAGPVDH [F8A]: -0.0442
PSACRNLFGMVDH [P10M]: -0.0481
PSACRNLDGPVDH [F8D]: 0.0358
PSACRNLLGPVDH [F8L]: -0.0264
PSACRNLFGWVDH [P10W]: 0.328
PVACRNLFGPVDH [S2V]: 0.271
PSACRNLFGPVMH [D12M]: 0.293
PSACYNLFGPVDH [R5Y]: 0.727
PSACRNLFGPSDH [V11S]: 0.518
PSADRNLFGPVDH [C4D]: 0.423
PSACRNIFGPVDH [L7I]: 0.623
PSAERNLFGPVDH [C4E]: 0.136

Study 2
Target: Centromere-binding protein 1, full length, His-tagged (CBF1, Saccharomyces cerevisiae, UniProt P17106, residues 1-351)
Chain of UniProt P17106 (whole entry, looked up): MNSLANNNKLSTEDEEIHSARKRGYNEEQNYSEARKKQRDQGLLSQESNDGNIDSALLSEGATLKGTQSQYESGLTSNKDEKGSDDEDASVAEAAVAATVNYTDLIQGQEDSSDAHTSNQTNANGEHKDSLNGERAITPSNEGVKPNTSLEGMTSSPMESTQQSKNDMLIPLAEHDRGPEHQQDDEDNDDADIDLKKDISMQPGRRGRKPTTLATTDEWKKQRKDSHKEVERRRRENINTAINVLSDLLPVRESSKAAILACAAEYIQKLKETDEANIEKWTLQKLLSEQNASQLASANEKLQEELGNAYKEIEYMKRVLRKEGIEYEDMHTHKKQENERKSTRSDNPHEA
Technique: competition protein-binding microarray
Molecule type: double-stranded DNA, one strand shown
Medium: in vitro
Concentration: 2 µM
Setting: whole 60-bp probe, lowest competitor level
Together with: Pho4 competitor, 0.05 µM
Direction: higher = stronger binding
Measurement: fluorescence intensity
Constant ends, left off below: … GTCTTGATTCGCTTGACGCTGCTG
AAATTACTAAGTTGTCACTCCACTTACCCCGTATGA: 74.6 a.u.
AAAGCGGTAATTTGAGACGTGGGTGCAGATATCTAT: 82 a.u.
TGCGCAACAACTTGTCACGACACTTTATGTCTAGAA: 205 a.u.
TGAGGGTTATCCAAGCGCATGACAATAAATGAGCGG: 190 a.u.
TTTCTCATATACCGTCACGTGGCCGGATGTTTATCG: 5110 a.u.
GATAACCTCCTTAGCACCGTGATTGTTTAATGTGTC: 125 a.u.
CCACTTTTTTTCAAATGTGTGACGAACCCATACCCC: 79.8 a.u.
AATGTACAATTTTACCAGGCGTGGAACCTGGACCGG: 51.8 a.u.
TTAAAAAAAAAAAAGCACGTGCTAAAAAATGTTTTT: 5240 a.u.
TTCATTGGTGCAGAAAGCGTGCTTTCCGGGTCCCAG: 68.1 a.u.
GCCCTGTTGGAGGCCATCGTGGTCGCCAAGAAAGCA: 58 a.u.
GATGGAGGATGCCCCCATGTGCTGATTCTCCCCGTA: 96 a.u.
TTCGTCTTCTTCGTCACCGTGACGGGAGCTCTTCGG: 129 a.u.
CTAACGAAGGTTTGTCACGATACTTACAAGCCAAGT: 220 a.u.
GAACTACGCTACTACGTCGTGGGTATTCTGGAGAAG: 64.7 a.u.
CTAACGAAGGTTTGTCACGCTACTTACAAGCCAAGT: 217 a.u.

Study 3
Target: ABI1, truncated, D143A, DHFR fusion (Arabidopsis thaliana)
Technique: DHFR PCA, deep sequencing
Medium: yeast
Setting: methotrexate growth selection, single substitutions
Together with: (+)-ABA 0.11 µM
Reference: wild-type fitted maximum
Direction: higher = stronger binding
Measurement: relative binding score
Starting sequence: PYL1, truncated, DHFR fusion (Arabidopsis thaliana); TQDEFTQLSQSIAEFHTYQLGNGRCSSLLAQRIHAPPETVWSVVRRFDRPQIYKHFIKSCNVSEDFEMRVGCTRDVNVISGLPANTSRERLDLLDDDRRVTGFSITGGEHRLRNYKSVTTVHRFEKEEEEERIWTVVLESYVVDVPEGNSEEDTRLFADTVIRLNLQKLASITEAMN
R45T: 3.91%
P146A: 25%
E139P: 8.93%
A170S: 4.95%
E4R: 5.32%
D96Y: -1.43%
H122A: -6.73%
V136Q: -2.05%
S140A: 1.41%
A84L: 24.5%
T1M: 35%
C60K: -4.67%
T120G: -2.85%
H16N: -2.69%
T154C: -3.93%

Study 4
Target: RING finger protein unkempt homolog, zinc fingers 1-6, GST-SBP tag (UNK, Homo sapiens, UniProt Q9C0B0, residues 30-357)
Chain of UniProt Q9C0B0 (30-357, looked up): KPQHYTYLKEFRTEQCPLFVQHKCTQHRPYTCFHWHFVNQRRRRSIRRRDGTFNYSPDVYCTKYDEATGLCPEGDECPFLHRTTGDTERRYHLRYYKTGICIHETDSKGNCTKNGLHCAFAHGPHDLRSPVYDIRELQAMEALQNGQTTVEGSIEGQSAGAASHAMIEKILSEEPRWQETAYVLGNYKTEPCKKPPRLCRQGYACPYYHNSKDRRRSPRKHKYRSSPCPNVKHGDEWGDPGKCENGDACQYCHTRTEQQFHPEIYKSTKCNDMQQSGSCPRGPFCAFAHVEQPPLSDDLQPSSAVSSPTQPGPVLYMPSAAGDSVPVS
Technique: RNA Bind-n-Seq
Molecule type: RNA
Medium: in vitro
Concentration: not given
Setting: RNA with constant flanks, ends assumed
Reference: input RNA pool
Direction: higher = stronger binding
Measurement: bound/input enrichment
Constant ends, left off below: GGGAGUUCUACAGUCCGACGAUC … CAACAGAGGAUUGAGCAUCA
CACAAGUGGAUGGUACUUUUGGAAACUGAACUCUUGUUGUUUUGUUUUUUUAUUGUAAGUCUCCGCCCUUAAUGGCUGAGUUGUCUCUUUAACCAGGAUGGCACUUUUAGGAAUGGUGAC: 1.88 ratio
GAGAAGAUUAUCUGUAACUUAAAACCAGCUUUAAAACUUCGUCUUCGAUUCAUCACACACAUCCGCAAGAUGGAGCCAGCUGCAGUGCCUCCACAAGCCAUGAACAGUGGGUCUCCAGCA: 0.205 ratio
UCUGAUGUCUCCCAGAUGAAUGAUAGACUGGGGGAAGAUGAGUCCUUGCUAAUGAAAUUGUACCGCUUCCUCCUAAAUGAGUCCCCCUUGAACCCACUACUCGCCAGUUUCUUCAGCAAG: 0.245 ratio
AUCGUACAUCGAGACCUCAAGGCUGAAAAUCUAUUGUUAGAUGCCGAUAUGAACAUUAAAACCGCAGAUUUCGGUUUUAGCAAUGAAUUUACUGUUGGCGGUAAACUCGACACGUUUUGU: 0.109 ratio
UAUUUCUUAUACUGUACAUGGUACAUAAAGUGCUUUCAAGAGGCUAAAACAAAACUUUUCCCGCAAAUAAUUUAAGUUAAAUGUAAAAUAUCCUAUAAAACCUAGAAUUGGUCAAAAGCA: 2.89 ratio
AUUCUCUACGACAAGGAUCAUUACAAGUUGGCUCUGGGGCAAAUAAAUAUUGCCAAAAAUUCCGUGGACAAUGUUGCUAAAGAUUAUGUGCGACUGAUGAAGUAUGGCGACUCUCUCUAC: 0.142 ratio
UUUGGUGCCAUUGGUUUCUUCUGGGUUGAGUGAGAUGUUGGAUAUUGCUAUCAAUCGCAGCCGUCUUUCCCCUGUGUGAGGCUGAAGCCUCAGAUUCCUUCUAAACACAGCUAUCUAGAG: 0.215 ratio
AUGGAUAUUGAAUUUGACUUUAAAGGCGAUCCACUAGGAGGAGUAAUAAGUAACUAUCUUUCCGAGAAAUCUCGGGUUGUUAAACAGCCAAGAGGUGAAAGAAACUUCCAUGUGUUCUAU: 0.116 ratio

Study 5
Target: RNA binding protein fox-1 homolog 2, RRM domain, GST-SBP tag (RBFOX2, Homo sapiens, UniProt O43251-10, residues 100-194)
Technique: RNA Bind-n-Seq
Molecule type: RNA
Medium: in vitro
Concentration: 365 nM
Setting: natural RNA segment, single round, ends assumed
Reference: no-protein control
Direction: higher = stronger binding
Measurement: RBNS enrichment (R)
Constant ends, left off below: GGGAGUUCUACAGUCCGACGAUC … UGGAAUUCUCGGGUGCCAA
Target sequence (chain): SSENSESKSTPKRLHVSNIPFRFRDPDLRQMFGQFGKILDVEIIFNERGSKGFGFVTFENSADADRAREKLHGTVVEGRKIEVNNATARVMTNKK
AUUAUAAUUAUGGACACUGCAUCAGUAUACAUAACAUGAAGGAAUAAAAAGGAUACAGAAUUGUAUAUACAUACUUACUGUAACACAUCUAAAAAAAUGUAUAUGGGUAA: 0.402
AUCGGUCCCCCUGCUGCUCUGUCCACUACAAGGUCAGCCACCUGCCAGGAGGCCACAGACAACAGGAAGAACCAAGCAGCACUCCAGCCAAGCCGUCACCAAGAGCCCAU: 0.157
AACACAGCCACACGCGCACACAAGUAUAAGACUUUUUGUAUUACUGCUCCCUACUUAACAUACUUGAAUUCUCAAAUUUCCUUUGGGGUAAAAAAAAAAAAAGGAUUUGA: 0.757
CCCAAGCUGUCCCAGCAAAUGGGCAGGAGGGGCAUGGCCUCUUUUAUAUAUAUAUAUCUAUUUAUUUUAUAUGUGUGUUUGUGAGGAAGAGGAUAUUUGUCAUUUCCUUA: 0.594
GCCCUGAUGCGGUAGAGGGGCAUCCUCUGGCCUUUGUGAGCUGUAGGGAUGCAGAGUCUGAUGCCAGCGUCUUGCUGGGGGAGUGGCCUAGAAGGGGAUCCUAACAGGGA: 0.666
GCUCAACAAAGCACAUCUUCACCACGCUCCAUCCGGACAACUCCAGUCUUGCCAACAAGUGCCAAAUAUCUGAGGAACCCAGGAACCCAGGGGAUCCCUUCCCCCAAGCC: 0.633
CCCACUGCGUACUGUGUUUUUAAUUUCAUUUAACUUCUAGCAGACACGCUCAGUGUCUUUGAUAAAAUAGUGUCUUUUUUUCAUGUGUUUUUAUUUCAUUUCUAAGAUUU: 0.729
GAGGGAAGGGGCCUGCCUCCCAGGGAGUCAACAUAGAUGUUCCCCAUGAACAGGGAUUUGACUUUGGAGGCCAACCUGGCCUGGCCUCUGCCCUUUAUCUCACACUCCCU: 0.27
CUCAGACCUCAGAGAUUGUGAAGGCAGUGCCAAGCUCACAGCAGUUCAGGACCAUCCCAGAAAGGGGUGAUAGCCCUGUUUAUCUCUCCAACCCAGUAUCUCAUGUGCCA: 0.288
AGUGUUGCUGCCUUCAGUUUGGUUCUGGCCAUGAGGCCCCUAGUGGGAGCUUUGCCCUUAGGGCUGUCCUCUGACUUGCCCUCAAAGUUCACCAAUUCGGCAACUCCAUG: 0.32
AGCAGAUGAGACCAGCUCUUGCUUGGUUGGAAGCCACACUGCAGUUUGCAGUUUAGCCUUUGGUGUCUCAGUGGCUUCUUGCUUAUUCCAUGCUUUUUCUAUCCCAUCCU: 0.205
GUGGGGGAGGGAGGGAAAGAGAAGAGCUCUGCACUUCCCUUUGUUGUAGUCUCACAGUAUAACAGAUAUUCUAAUUCUUCUUAAUAUUCCCCCAUAAUGCCAGAAAUUGG: 0.748

Study 6
Target: UBE2E1 UBC core domain (UniProt P51965)
Chain of UniProt P51965 (whole entry, looked up): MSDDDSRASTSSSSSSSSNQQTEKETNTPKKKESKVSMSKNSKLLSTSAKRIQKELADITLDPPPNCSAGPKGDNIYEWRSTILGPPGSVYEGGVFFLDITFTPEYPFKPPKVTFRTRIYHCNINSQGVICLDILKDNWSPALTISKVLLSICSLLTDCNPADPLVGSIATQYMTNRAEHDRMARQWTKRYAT
Technique: yeast two-hybrid
Medium: yeast
Setting: mostly zero background
Reference: not given
Direction: higher = stronger interaction
Measurement: lacZ reporter activity
B1: TRIM35 RING domain (UniProt Q9UPQ4); chain PSRSFKEELLCAVCYDPFRDAVTLRCGHNFCRGCVSRCWEVQVSPTCPVCKDRASPADLRT
B2: UBE4A RING domain (UniProt Q14139); chain LQQQEEETYADACDEFLDPIMSTLMCDPVVLPSSRVTVDRSTIARHLLSDQTDPFNRSPLTMDQIRPNTELKEKIQRWLAERKQQKEQLE
B3: TRIM55 RING domain (UniProt Q9BYV6); chain TMDNLEKQLICPICLEMFTKPVVILPCQHNLCRKCASDIFQASNPYLPTRGGTTMASGGRFRCPSCRHEVVLDRHG
B4: RNF43 RING domain (UniProt Q68DV7); chain SGSSCSSAPVCAICLEEFSEGQELRVISCLHEFHRNCVDPWLHQHRTCPLCMFNITEGDSFS
B1 (TRIM35 RING domain): 0
B2 (UBE4A RING domain): 0
B3 (TRIM55 RING domain): 0
B4 (RNF43 RING domain): 2740
